Measurements pooled from the literature.
Each numbered part is a random draw from the data of one study; scales do not carry over between parts.

Sample 1
Target: Replicase polyprotein 1ab, main protease (rep, Severe acute respiratory syndrome coronavirus 2, UniProt P0DTD1)
Read-out: enzyme activity
Action: inhibitor
Tested at: 20 µM
Setting: hit confirmation
SMILES | inhibition [%]
Cc1cc(-c2ccc(/C=C3/SC(Nc4ccc(Cl)c(C(=O)O)c4)=NC3=O)o2)c([N+](=O)[O-])cc1C | 86.3
S=C(S)N1CCCC1 | 99.5
CC(C)(C)OC(=O)NCCc1nnc(S(=O)(=O)Cc2ccc(Cl)cc2Cl)o1 | 102
O=C1C(Cl)=C(N2CCOCC2)C(=O)N1c1ccc(Cl)c(Cl)c1 | 100
COc1ccc(NC(=O)CC2Sc3ncnn3C2=O)cc1 (stereo not drawn) | 50.4

Sample 2
Cell line: HEK-293T
Read-out: pseudovirus infection
Technique: FDA-approved drug library screen
Organism: VSV pseudotyped with SARS-CoV-2 spike
Tested at: 10 µM
Time: 16 h
Baseline: vehicle-treated
SMILES | GFP-positive cells
CNCCCN1c2ccccc2CCc2ccccc21 | 83.2%
CCC1(c2ccc(N)cc2)CCC(=O)NC1=O (stereo not drawn) | 77.3%
COc1cccc2c1C(=O)c1c(O)c3c(c(O)c1C2=O)C[C@@](O)(C(=O)CO)C[C@@H]3O[C@H]1C[C@H](N)[C@H](O)[C@H](C)O1 | 90.4%
O=C(c1ccccc1)c1ccc2n1CCC2C(=O)O (stereo not drawn) | 81.3%
Cc1c(-c2ccccc2)oc2c(C(=O)OCCN3CCCCC3)cccc2c1=O | 94.3%

Sample 3
Target: Histone acetyltransferase KAT6A, winged helix 1, GST fusion (KAT6A, Homo sapiens, UniProt Q92794, residues 1-85)
Technique: protein binding microarray
Form: double-stranded DNA, one strand shown
Sample: in vitro
Tested at: not given
Setting: 8-mer, flanks averaged, mean of 2 arrays, mostly near background
Baseline: not given
Reading: higher = stronger binding
Target sequence (chain): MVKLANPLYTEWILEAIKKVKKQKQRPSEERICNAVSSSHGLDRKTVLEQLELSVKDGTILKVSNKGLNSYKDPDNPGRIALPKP
Oligonucleotide | E-score
ATTTTAGG | -0.153
GAACTATC | -0.12
ACGGCCCC | 0.327
AGGTAACC | 0.0845
AACGGACA | 0.11
CGGTTCAG | 0.135
GCATGGCC | 0.0761
AATTCTCG | -0.202

Sample 4
Target: Sal-like protein 4, full length isoform A (SALL4, Homo sapiens, UniProt Q9UJQ4, residues 1-1053)
UniProt Q9UJQ4, sequence (whole entry, looked up): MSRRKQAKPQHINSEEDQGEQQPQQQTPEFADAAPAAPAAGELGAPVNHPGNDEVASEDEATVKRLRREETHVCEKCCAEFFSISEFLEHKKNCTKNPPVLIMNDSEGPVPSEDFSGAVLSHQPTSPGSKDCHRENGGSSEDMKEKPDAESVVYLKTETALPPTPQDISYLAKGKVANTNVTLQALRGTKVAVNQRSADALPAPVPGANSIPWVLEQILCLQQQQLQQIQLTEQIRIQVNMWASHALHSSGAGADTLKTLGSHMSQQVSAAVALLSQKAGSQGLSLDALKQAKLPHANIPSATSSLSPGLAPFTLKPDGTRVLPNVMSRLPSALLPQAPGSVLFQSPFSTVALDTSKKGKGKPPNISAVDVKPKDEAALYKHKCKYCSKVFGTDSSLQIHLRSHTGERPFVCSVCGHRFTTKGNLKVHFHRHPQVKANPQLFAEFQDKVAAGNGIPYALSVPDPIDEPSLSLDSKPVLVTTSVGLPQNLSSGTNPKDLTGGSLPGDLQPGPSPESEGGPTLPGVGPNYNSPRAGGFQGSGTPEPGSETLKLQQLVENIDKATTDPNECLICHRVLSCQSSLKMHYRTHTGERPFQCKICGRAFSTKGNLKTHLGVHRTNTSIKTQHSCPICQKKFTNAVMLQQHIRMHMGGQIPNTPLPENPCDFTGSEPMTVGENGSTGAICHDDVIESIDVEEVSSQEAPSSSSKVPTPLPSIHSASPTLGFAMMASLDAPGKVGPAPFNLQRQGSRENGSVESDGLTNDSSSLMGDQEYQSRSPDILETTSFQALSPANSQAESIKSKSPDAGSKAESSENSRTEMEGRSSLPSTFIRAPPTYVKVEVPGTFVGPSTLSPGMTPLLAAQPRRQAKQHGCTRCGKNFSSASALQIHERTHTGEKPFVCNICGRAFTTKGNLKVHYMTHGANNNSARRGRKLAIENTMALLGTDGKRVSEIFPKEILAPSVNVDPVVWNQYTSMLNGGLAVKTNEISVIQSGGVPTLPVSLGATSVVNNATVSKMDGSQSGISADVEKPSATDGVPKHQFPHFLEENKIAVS
Technique: universal PBM
Form: double-stranded DNA, one strand shown
Sample: in vitro
Tested at: 600 nM
Setting: 8-mer, flanks averaged, mean of replicates
Reading: higher = stronger binding
Oligonucleotide | E-score
AATAACAG | 0.309
TTCTAGAA | -0.0428
GATGGGAC | -0.15
CAACCTCG | -0.112
CATGCACC | -0.0713
ACGATCCG | -0.205
ATCAGGAA | 0.0972
CACGCCTA | -0.0549

Sample 5
Target: Replicase polyprotein 1ab, nsp13 helicase (rep, Severe acute respiratory syndrome coronavirus 2, UniProt P0DTD1)
Action: inhibitor
Tested at: 20 µM
SMILES | inhibition [%]
CNCc1ccc(C)c(NC(=O)c2ccc(Nc3nc(-c4ccccc4)c4ccccc4n3)cc2)c1 | 12.1
COc1ccc([C@H]2CNC(=O)C2)cc1OC1CCCC1 | -0.56
CC(=O)N[C@H]1[C@H]([C@H](O)[C@H](O)CO)OC(C(=O)O)=C[C@@H]1NC(=N)N | 0.69
CNCC[C@H](Oc1cccc2ccccc12)c1cccs1 | 5.55
CCCCCCN(CCCCCC)C(=O)Cc1c(-c2ccc(Cl)cc2)[nH]c2ccc(Cl)cc12 | 5.33
CCCC(=O)Nc1ccc(OCC(O)CNC(C)C)c(C(C)=O)c1 (stereo not drawn) | -4.37
C[C@]12CCC(=O)C=C1CC[C@@H]1[C@@H]2C(=O)C[C@]2(C)C(=O)CC[C@@H]12 | -3.13
CN1CCN(c2nc3ccccc3nc2Cl)CC1 | 5.6
COc1cc2c(c(OC)c1OC)-c1c(cc3c(c1OC)OCO3)C[C@H](C)[C@@](C)(O)C2 | 5.54
Cc1onc(-c2c(F)cccc2Cl)c1C(=O)N[C@@H]1C(=O)N2[C@@H]1SC(C)(C)[C@@H]2C(=O)O | -6.55
CC(=O)O[C@H]1CC[C@@]2(C)C(=CC[C@@H]3[C@@H]2CC[C@]2(C)C(c4cccnc4)=CC[C@@H]32)C1 | 3.13
COc1nccnc1NS(=O)(=O)c1ccc(N)cc1 | 7
Cc1ncc(CO)c(CO)c1O | 7.07
N#C/C(=C\c1ccc(O)c(O)c1)C(=O)OCCc1cccs1 | 8.66
COc1cc(NC(=O)c2cccc(-n3cc(NC(=O)Nc4cccc(C)c4)cn3)c2)cc(OC)c1OC | 1.85
COC(c1ccccc1)(c1ccccc1)[C@H](Oc1nc(C)cc(C)n1)C(=O)O | 4.11
O=C(/C=C/c1ccccc1)NC(NC(=S)Nc1ccc(Cl)cc1)C(Cl)(Cl)Cl (stereo not drawn) | 4.4
COc1cccc(OC)c1OCCNCC1COc2ccccc2O1 (stereo not drawn) | 8.62
O=C(O)Cc1cccc2c(=O)cc(-c3ccccc3)oc12 | 0.27
COCCCN1CCC(NC(=O)c2cc(Cl)c(N)c3c2OCC3)CC1 | 5.04
C#Cc1cnc2nc(O)n(C(CC)CC)c2n1 | 7.48
c1ccc(CNCc2ccc(CN3CCCNCCNCCCNCC3)cc2)nc1 | 2.05
Cc1ccc(NC2=NCCN2)c(Cl)c1 | 3.37
Nc1nc2[nH]cnc2c(=S)[nH]1 | 4.41
C[N+]1(C)CCc2cc3c(cc2[C@H]1[C@@H]1OC(=O)c2c1ccc1c2OCO1)OCO3 | 2.22
